Assay results collected from several papers.
Every numbered part comes from another study and shows a few of its results, in no order.

Block 1
Target: Interferon regulatory factor 5, full length, phosphomimetic (IRF5, Homo sapiens, UniProt Q13568-2, residues 1-514, S451D/S453D/S456D/S462D)
Method: protein-binding microarray
Molecule type: double-stranded DNA, one strand shown
Sample: in vitro
Concentration: 940 nM top
Notes: 60-bp whole probe
With: salmon DNA 0.4 mg/ml
Relative to: random background probes
Reading: higher = stronger binding
Measurement: fitted relative affinity
Constant ends, left off below: GCCTAGCAC … GTCTTGATTCGCTTGACGCTGCTG
GACGAACTGCGGACTGGAGACGTGCTA: -0.556 z-score
TCATCTCTGGACTGTGTGACTGTGCTA: -0.174 z-score
TTAGGACTGGGGTTTCGGCTAGTGCTA: 2.48 z-score
GTAGATTTCGGGTTTCGATTAGTGCTA: 5.86 z-score
GACGATATCGGATTTCGAGACGTGCTA: -0.161 z-score
GAAGATATCGGGTTTCGAGACGTGCTA: 1.79 z-score
TCAGCCCTCACCATCATACTGTGCTAG: 0.571 z-score
TTAGATTTCGGGACTGGATGAGTGCTA: 0.862 z-score
GACGGTATCGGTATCTGGACGTGCTAG: 7.82 z-score
GACGAACTGAGTTTCGAGATGTGCTAG: 3.28 z-score
GACCGACTGCTTCTCCTGACGTGCTAG: 0.0451 z-score
TACGGTATCCTACTGCTGACGTGCTAG: -0.226 z-score
TTAGGTTCCGGTTTAGGTTAGTGCTAG: 4.57 z-score
ATAGAACTGAGACTGGATTAGTGCTAG: -0.00832 z-score
GACGTACTGGGGTTTCGGGACGTGCTA: 2.01 z-score
TATGTTCCTTATTTAAGACCGTGCTAG: 0.339 z-score
TTAGGACTGGACTTTCGGTTCGTGCTA: 1.82 z-score
TTAGATCTCGGGACTGGATTAGTGCTA: 0.36 z-score
TTAAAACTGGGGACTGGATTAGTGCTA: -0.0386 z-score
TCAACTAGGGAATTTAGAACTGTGCTA: -0.191 z-score
GACGGTAGCGGACTGGGGACGTGCTAG: -0.53 z-score
GACGATCTCAGACTGTAGACGTGCTAG: -0.292 z-score
GACGGTTTCCTTATCCTGAAGTGCTAG: 1.4 z-score
GACGGACTGTGTCTCGGGACGTGCTAG: -0.262 z-score
TCAGTTCTTAGCTTGGGACTGTGCTAG: -0.246 z-score

Block 2
Target: Histone acetyltransferase KAT6A, winged helix 2, GST fusion (KAT6A, Homo sapiens, UniProt Q92794, residues 85-181)
Method: protein binding microarray
Molecule type: double-stranded DNA, one strand shown
Sample: in vitro
Concentration: not given
Notes: 8-mer, flanks averaged, mean of 2 arrays, mostly near background
Relative to: not given
Reading: higher = stronger binding
Measurement: E-score
Target sequence (chain): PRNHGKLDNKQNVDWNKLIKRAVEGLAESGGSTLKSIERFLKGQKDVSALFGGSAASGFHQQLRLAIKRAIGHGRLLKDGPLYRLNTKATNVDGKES
ACCCCGAC: -0.055
AAATACTT: -0.0511
CTCCTCAG: -0.0115
GGTGTTAC: -0.094
GCCGAAGC: 0.153
ACGATACG: -0.105
AATATGGA: -0.12
ATTGTAAG: -0.0341
GTGACACA: 0.0773
AATTATAT: -0.00201
CATATTCC: -0.184
AACCATTA: -0.0286
AGCGCGAG: 0.013
CCCGGTCC: 0.0381
GGTGGTTA: -0.0172
CCTGGATA: 0.00763
GAAGGTGA: 0.0356

Block 3
Target: Centromere-binding protein 1, full length, N-terminal tag (CBF1, Saccharomyces cerevisiae, UniProt P17106, residues 1-351)
Chain of UniProt P17106 (whole entry, looked up): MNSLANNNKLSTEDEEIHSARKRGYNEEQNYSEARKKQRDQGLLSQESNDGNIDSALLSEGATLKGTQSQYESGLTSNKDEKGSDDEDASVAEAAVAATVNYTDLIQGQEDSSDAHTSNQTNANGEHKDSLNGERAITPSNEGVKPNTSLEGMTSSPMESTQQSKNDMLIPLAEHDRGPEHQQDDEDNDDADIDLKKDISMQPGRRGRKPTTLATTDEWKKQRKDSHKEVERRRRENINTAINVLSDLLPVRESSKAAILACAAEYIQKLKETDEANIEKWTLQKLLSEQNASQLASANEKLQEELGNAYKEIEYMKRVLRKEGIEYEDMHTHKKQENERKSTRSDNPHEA
Method: protein-binding microarray
Molecule type: double-stranded DNA, one strand shown
Sample: in vitro
Concentration: 0.8 µM
Notes: whole 60-bp probe, no competitor
Reading: higher = stronger binding
Measurement: fluorescence intensity
TGTACGAAGCTATTTCAGTTGATTATAGTAGTTAGGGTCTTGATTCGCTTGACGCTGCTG: 510 a.u.
CTAATGCAATGCCATCACCAGCAAAATGAACCATTCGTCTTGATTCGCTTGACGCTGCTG: 501 a.u.
GAAACCATGTATGCTCATGACTCCATATAGGACTAGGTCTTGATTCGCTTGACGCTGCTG: 572 a.u.
CTAGGAATGAAACATTATCACGTACAAGATGAATTCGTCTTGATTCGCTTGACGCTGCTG: 584 a.u.
CCTAACTACTATAAGCATGTGACATAGCTTCGTACAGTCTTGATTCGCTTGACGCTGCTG: 3210 a.u.
CTAAGGTCCACGTACGTCACAAATATCTTCTTTTTCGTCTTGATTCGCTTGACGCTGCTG: 473 a.u.
GAACAGCCGTGCGACCATGTGGTATTTCACCCGTAGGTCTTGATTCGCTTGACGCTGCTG: 643 a.u.
CTATTTTTAAAAGCGCACGTTTCTTTTTCTTTGTTCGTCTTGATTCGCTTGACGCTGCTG: 753 a.u.
CTAGTCATTCACAGACACGTTTAACAAAACACCTTCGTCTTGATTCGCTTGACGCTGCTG: 666 a.u.
TGTACGAAGCTATGGGTTGTGATTATAGTAGTTAGGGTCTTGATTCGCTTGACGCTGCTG: 535 a.u.
CTAGCAGATTATAAATGCGTGGTGTAAAATTCTTTCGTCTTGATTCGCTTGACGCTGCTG: 560 a.u.
GAAAATTGCATGATTCAGCTGACTGCATATGTGTAGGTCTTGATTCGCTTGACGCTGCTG: 1190 a.u.
CTACATTCCGCTCATCATCACTAATATTGCTCTTTCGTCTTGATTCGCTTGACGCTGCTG: 576 a.u.
GAAAATATTTGTGTGCACGAGATATGGGAGGACTAGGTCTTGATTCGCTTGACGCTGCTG: 1300 a.u.
GAACACGTGGCTGCACACGTGAATGAAAAAGAATAGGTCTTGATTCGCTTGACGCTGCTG: 9340 a.u.
CTAGTGATAGAAGAAAAGGTGACGAAAAGATTGTTCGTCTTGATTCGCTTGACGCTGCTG: 589 a.u.
CTAGGGTTGAACGAACGTCACATGTGTACGGATTTCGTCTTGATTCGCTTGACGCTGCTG: 3690 a.u.
GAAAGAGAAGCGAATGGTGTGATGAAATCGCGTTAGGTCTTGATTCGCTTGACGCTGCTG: 528 a.u.
CTATATTACAAGTGTGTCACCATTTCCGGCCCATTCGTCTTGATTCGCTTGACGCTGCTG: 545 a.u.
GAACAAGCGAAACACCACGCAAACACAAGTTGTTAGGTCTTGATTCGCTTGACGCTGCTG: 514 a.u.
GAACGGAAAAGCTCACGTGTGAAGAAGAAAACATAGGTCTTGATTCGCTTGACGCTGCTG: 3620 a.u.
CTAGACTACCAGTAACATCAGAATAACCATAGATTCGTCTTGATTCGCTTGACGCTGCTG: 530 a.u.
CTATTAGTTAAGCACGTGCCGATGATATCAATTTTCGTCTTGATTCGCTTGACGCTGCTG: 17200 a.u.
CTAATTTGAGCATCTCACATGGTTACGAATGTATTCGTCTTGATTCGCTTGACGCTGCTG: 790 a.u.
GAAGGCATAATTACTTGCCTGATGACGAATAACTAGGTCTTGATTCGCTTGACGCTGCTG: 602 a.u.

Block 4
Target: RING finger protein unkempt homolog, zinc fingers 1-6, GST-SBP tag (UNK, Homo sapiens, UniProt Q9C0B0, residues 30-357)
Method: RNA Bind-n-Seq
Molecule type: RNA
Sample: in vitro
Concentration: not given
Notes: RNA with constant flanks, human-mouse chimeric sites, ends assumed
Relative to: input RNA pool
Reading: higher = stronger binding
Measurement: bound/input enrichment
Target sequence (chain): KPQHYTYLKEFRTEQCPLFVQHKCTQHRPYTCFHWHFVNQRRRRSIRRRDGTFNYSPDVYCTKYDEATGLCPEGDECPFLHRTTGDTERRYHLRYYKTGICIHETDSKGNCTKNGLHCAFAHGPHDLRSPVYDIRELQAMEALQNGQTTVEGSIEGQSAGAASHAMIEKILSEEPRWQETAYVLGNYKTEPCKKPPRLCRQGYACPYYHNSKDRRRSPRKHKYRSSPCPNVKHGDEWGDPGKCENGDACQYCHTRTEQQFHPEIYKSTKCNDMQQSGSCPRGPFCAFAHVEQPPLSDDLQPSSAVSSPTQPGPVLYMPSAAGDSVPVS
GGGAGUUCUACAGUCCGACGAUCAAAUUUCCCCUCCUGAGACCUCCUCCGAAAUUGGCAUCUCUUACAGAUGCCUCAUCCCCUGUUAGCGUUUUAGUUUGGACCACCCAGCCUUGGACAAUUCCCGCCAACCAGGCAAUUUGCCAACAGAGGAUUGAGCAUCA: 1.2 ratio
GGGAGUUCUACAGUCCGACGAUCAUUGUUGAAGCGAAUCCACUUUUAGAAGCCUUUGGAAAUGCAAAGACUGUUCGCAACAAUAAUAGCAGUCGAUUUGGAAAAUUUGUAGAAAUACAUUUCAAUGAAAAGAGUUCGGUUGUUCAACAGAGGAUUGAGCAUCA: 0.245 ratio
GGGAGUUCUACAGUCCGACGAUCAGAUUCCCCCUCCUGAGACCUCCUCCGAAGUUGGAGUCUCUUACAGAUGCCUCAUCCCCUGUUAGCGUUUUAGUUUGGACCACCCAGCCUUGGACGAUUCCCGCCAACCAGGCAAUUUGCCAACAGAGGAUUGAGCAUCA: 0.821 ratio
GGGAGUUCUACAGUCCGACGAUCUGGCGCCUGCGCUCCCCACUCGUGUUUUUAAGUGUAUUUUUAUAAGAUACAUGUAUUUGUAAUAGAUCUUUUGUUACUAUAAUACUGAAUGCUACUGGAGAUUAUGAAAAAUGUUUCAAUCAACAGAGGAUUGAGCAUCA: 0.326 ratio
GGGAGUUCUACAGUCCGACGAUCAUCAAAUAUUUUGGGGACAUCAUUAGUGUGGGACAGAGACUGUUGCAAGGAGCUCGGAUCUUAGGGAUUCCUGUUAUCAUAACGGAACAAUACCCCAAAGGACUUGGCAGCACCGUUCAACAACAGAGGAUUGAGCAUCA: 0.171 ratio
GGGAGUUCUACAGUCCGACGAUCGUAGCUGGGACUACAGAAGAAUGCUGAGUGCUCCGGCCUUGCUGAUGACUUCUGAUGUCCCAGCAAAUGUUGGCAUUGUUGACUGCUGAGAAGAUACUUCUGAGGACCCACGUCUAAGGUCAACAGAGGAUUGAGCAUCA: 0.0393 ratio
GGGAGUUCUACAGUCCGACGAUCGAUCAUGAACCACCAUCAGAAAUGAAGAUGAGAUUACCCAGACGAGCCAAAACAGCUGCGCUACAGAAAAGUAAACUUAACCUUGCACCAAUUUCUCAUGAAGAUACUAAGUUAGGAAGCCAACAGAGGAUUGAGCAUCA: 0.47 ratio
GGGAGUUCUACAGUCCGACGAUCAUGGAAAAGGAUUCUCUGCCCCGCUUUGUGCGCUCUGAAUUUUAUAAGGAGCUAAUCAAGUAGUCAUCUGGUCAGGCUUCCAAAAGUUGCCCUGUGAGUUGAGUUACAUCCUUUGUAGCACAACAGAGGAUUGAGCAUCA: 0.192 ratio
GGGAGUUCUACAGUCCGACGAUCCUGUGUGUGCUGAAUAAUGAUUUGUGAAAGAAGUUUUUCCAAGCUGUAACCCAUGCUUCCCUUAGAGUUGCUGCAAAAUGUUCUUCCUGAUAUUGAUUUUAUUUGUUAACUGAAGGUCUCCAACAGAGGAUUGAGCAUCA: 0.555 ratio
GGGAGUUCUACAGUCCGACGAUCCAGCCUCAGAGCCCAGACUUCCUGGAUAUCACCAACCCUAAAGCGGUAUUAGAAAACGCAUUGAGAAACUUCGCCUGUCUGACGACUGGAGAUGUGAUUGCUAUCAACUACAAUGAGAAGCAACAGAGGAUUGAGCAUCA: 0.34 ratio
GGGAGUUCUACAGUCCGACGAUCGUGACUGGUGUUAAGAUUUCCCCUCAGCAAAGAAGUGCAGUAGUCACCAUAAUUCCAUCUGUGGUGAGUGCCAGUCAGAUAAAAGAGCUGGUCCCAGAACUCAGUUUAGACAUGGGAACUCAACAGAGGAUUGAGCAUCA: 0.348 ratio

Some of these lines once more (block 2):
ATTGTAAG: -0.0341
AATTATAT: -0.00201
CATATTCC: -0.184
AATATGGA: -0.12
GCCGAAGC: 0.153
GTGACACA: 0.0773
